Published values collected from several papers.
Protocols differ between the studies behind these lines. ± marks the error that the study gave.
Chain of UniProt P04062 (whole entry, unmodified, looked up): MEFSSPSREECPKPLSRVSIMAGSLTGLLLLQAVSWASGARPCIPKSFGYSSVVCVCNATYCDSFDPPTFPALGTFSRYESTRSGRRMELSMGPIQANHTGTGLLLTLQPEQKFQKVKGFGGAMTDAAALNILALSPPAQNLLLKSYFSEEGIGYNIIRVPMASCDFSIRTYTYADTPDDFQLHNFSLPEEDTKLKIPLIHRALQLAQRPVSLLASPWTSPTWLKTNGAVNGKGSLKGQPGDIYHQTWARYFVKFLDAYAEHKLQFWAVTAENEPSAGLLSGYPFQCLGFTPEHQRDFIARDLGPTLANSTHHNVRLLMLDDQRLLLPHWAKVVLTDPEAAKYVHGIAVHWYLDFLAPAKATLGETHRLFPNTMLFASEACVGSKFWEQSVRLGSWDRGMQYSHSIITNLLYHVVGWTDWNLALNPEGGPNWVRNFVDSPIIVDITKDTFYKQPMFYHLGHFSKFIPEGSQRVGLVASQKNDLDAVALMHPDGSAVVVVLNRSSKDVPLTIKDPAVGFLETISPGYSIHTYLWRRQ

`CCCC[C@H](OC(C)=O)c1ccccc1C(=O)O` has a Tmax of 0.017 h (Sprague-Dawley rats, both sexes, whole blood; intravenous, 5 mg/kg single dose).
For `C=C(NC(=O)c1csc(-c2nc3c(cc2O)-c2nc(cs2)C(=O)NC(C(C)O)C(=O)NC(=C(C)OC)c2nc(cs2)C(=O)NC2c4nc(cs4)C(=O)NC(COC(=O)c4c5c6c(cccc6n4O)COC(=O)C(OC4CC(C)(O)C(N(C)C)C(C)O4)C2OC5)c2nc-3cs2)n1)C(N)=O` (stereo not drawn), the Tmax was 0.09 h (Sprague-Dawley rat, both sexes, plasma; intravenous infusion, 6 mg/kg, multiple doses, day 7).
`OC1(C(F)(F)F)CCN(c2nc(Nc3ccnc(C(F)(F)F)c3)nc(-c3cccc(C(F)(F)F)n3)n2)C1` (stereo not drawn) has a Tmax of 7.33 ± 3.93 h (Sprague-Dawley rat, both sexes, plasma; oral gavage, 5 mg/kg, day 1).
`COc1ccc([C@@H]2CC(=O)c3c(O)cc(O[C@@H]4O[C@H](CO)[C@@H](O)[C@H](O)[C@H]4O[C@@H]4O[C@@H](C)[C@H](O)[C@@H](O)[C@H]4O)cc3O2)cc1O` gave a Tmax of 0.833 ± 0.289 h (Sprague-Dawley rat, male, lean, plasma; intravenous, 4 mg/kg).
With `OC[C@@H]1[C@@H](O)[C@H](O)[C@@H](O)CN1CCCCCOCc1ccc(-c2ccncc2)cc1` the IC50 was 2000 nM (GBA1 (Homo sapiens, UniProt P04062, R534H); inhibitor, 4MU-β-D-glucopyranoside; added: 4MU-β-D-glucopyranoside).
The Tmax of `O=C(O)CN1CCN(CC(=O)O)CCN(C(CCC(=O)NCc2ccc(NC(=S)NCCNC(=O)CCCc3ccc(I)cc3)cc2)C(=O)O)CC1` (stereo not drawn) is reported as 1.71 h (dynamic PET/CT; Sprague-Dawley rats female, liver; intracisternal infusion, median).
The relative translation of `OC(COc1ccc2cc(Br)ccc2c1)Cn1ccnc1` (stereo not drawn) is reported as 110% (Trypanosoma cruzi; reporter mRNA translation, inhibitor, refers to: capped polyadenylated Renilla luciferase mRNA; cell-free extract; concentration not given; reference: control RNA).
For `O=C(O)/C=C\c1cc2ccoc2cc1O[C@@H]1O[C@H](CO)[C@@H](O)[C@H](O)[C@H]1O`, the Tmax was 2.17 ± 1.15 h (rat, plasma; oral, 217 mg/kg Pc extract, dosed as Pc extract).
With `O=C(NS(=O)(=O)c1cccs1)c1cc2ccccc2n1Cc1ccc(Br)c2ccccc12` the Tmax was 1 h (Sprague-Dawley rat, male, plasma; oral, 20 mg/kg).
`CC[C@H](C)[C@H](NC(=O)[C@H](Cc1ccc(O)cc1)NC(=O)[C@@H](NC(=O)[C@H](CCCNC(=N)N)NC(=O)[C@@H](N)CC(=O)O)C(C)C)C(=O)N[C@@H](Cc1c[nH]cn1)C(=O)N1CCC[C@H]1C(=O)O` has a Tmax of 0.25 h (LC-MS/MS; Sprague-Dawley rat, plasma; sc, 10 mg/kg/day, day 27).
The Tmax of `O=C(O)CN1CCN(CC(=O)O)CCN(C(CCC(=O)NCc2ccc(NC(=S)NCCOCCOCCOCCNC(=O)CCCc3ccc(I)cc3)cc2)C(=O)O)CC1` (stereo not drawn) is reported as 1.83 h (dynamic PET/CT; Sprague-Dawley rats female, liver; intracisternal infusion, median).
The relative translation of `c1ccc(Nc2nc(NCC3CCCO3)c3ccccc3n2)cc1` (stereo not drawn) is reported as 41.5% (Trypanosoma cruzi; reporter mRNA translation, inhibitor, refers to: capped polyadenylated Renilla luciferase mRNA; cell-free extract; concentration not given; reference: control RNA).

Excerpt of the above:
The Tmax of `O=C(O)CN1CCN(CC(=O)O)CCN(C(CCC(=O)NCc2ccc(NC(=S)NCCNC(=O)CCCc3ccc(I)cc3)cc2)C(=O)O)CC1` (stereo not drawn) is reported as 1.71 h (dynamic PET/CT; Sprague-Dawley rats female, liver; intracisternal infusion, median).
